Assay results from different studies.
Lines come from different studies, so protocols differ. Numbers after ± are the reported error.
Technique: steady-state kinetics
B1: LYPLA2 (Homo sapiens, UniProt O95372); chain MCGNTMSVPLLTDAATVSGAERETAAVIFLHGLGDTGHSWADALSTIRLPHVKYICPHAPRIPVTLNMKMVMPSWFDLMGLSPDAPEDEAGIKKAAENIKALIEHEMKNGIPANRIVLGGFSQGGALSLYTALTCPHPLAGIVALSCWLPLHRAFPQAANGSAKDLAILQCHGELDPMVPVRFGALTAEKLRSVVTPARVQFKTYPGVMHSSCPQEMAAVKEFLEKLLPPV
B2: protein (Cecembia lonarensis, UniProt K1KV82); chain QENKEKDRTPSSKHLTDNILQPKRSSDFMAFKYEYSTVDLYREFSESIMDKARSEVEILESVNRQGRYKPNVESLKLHEVPEWFEDAKLGIFLDWGPWSVPGYAPLKGAEASTGGSYPDWYEFLMDNLYKEYHDEVWGADFRRDDFLPLLTGENFNSEEYMLLAVNSGAKYFVPFTKHHAGWTMWESEFTKRNAVEMGPGRDIYKELIEAGKKYDMKMGFYFSVSEWEYPVIVDQNLSQWDPVKNLAIFQDALGQIPRATPLASYFPALHDRMISGKIPVKDYFADYMIPSFKEAVDKYDPDLVWYDGGWGSPVSISRTMETSAYFYNQAEGKKDVVINNRAGSSLSEDDLIKVRDLMDSGKRDEAMKIYLSGQQLGDYGTPEFTIGDVDIQSKWEVCRSISPAFGYNWQDDEASSLSGEELIKLFVDIVANNGNLLLVISPDGSGKLPDIQKDRLLELGDWMKVNAESIHNTRPWKVQKENDKFFTKSKDGKSLFVHCTNWPGENLIINTPIEEGIKGIKLLGSDINLQFTKASNGNLEIPIPKDFQNNPSLISKYVWTFKIDLN
B3: protein G96D/P94L (Streptomyces coelicolor, UniProt P16544); chain MATQDSEVALVTGATSGIGLEIARRLGKEGLRVFVCARGEEGLRTTLKELREAGVEADGRTCDVRSVPEIEALVAAVVERYGPVDVLVNNAGRLGDGATAELADELWLDVVETNLTGVFRVTKQVLKAGGMLERGTGRIVNIASTGGKQGVVHAAPYSASKHGVVGFTKALGLELARTGITVNAVCPGFVETPMAASVREHYSDIWEVSTEEAFDRITARVPIGRYVQPSEVAEMVAYLIGPGAAAVTAQALNVCGGLGNY
B4: AARS2 (Homo sapiens, UniProt Q5JTZ9); chain SHRPLSSEPPAAKASAVRAAFLNFFRDRHGHRLVPSASVRPRGDPSLLFVNAGMNQFKPIFLGTVDPRSEMAGFRRVANSQKCVRAGGHHNDLEDVGRDLSHHTFFEMLGNWAFGGEYFKEEACNMAWELLTQVYGIPEERLWISYFDGDPKAGLDPDLETRDIWLSLGVPASRVLSFGPQENFWEMGDTGPCGPCTEIHYDLAGGVGAPQLVELWNLVFMQHNREADGSLQPLPQRHVDTGMGLERLVAVLQGKHSTYDTDLFSPLLNAIQQGCRAPPYLGRVGVADEGRTDTAYRVVADHIRTLSVCISDGIFPGMSGPPLVLRRILRRAVRFSMEILKAPPGFLGSLVPVVVETLGDAYPELQRNSAQIANLVSEDEAAFLASLERGRRIIDRTLRTLGPSDMFPAEVAWSLSLCGDLGLPLDMVELMLEEKGVQLDSAGLERLAQEEAQHRARQAEPVQKQGLWLDVHALGELQRQGVPPTDDSPKYNYSLRPSGSYEFGTCEAQVLQLYTEDGTAVASVGKGQRCGLLLDRTNFYAEQGGQASDRGYLVRAGQEDVLFPVARAQVCGGFILHEAVAPECLRLGDQVQLHVDEAWRLGCMAKHTATHLLNWALRQTLGPGTEQQGSHLNPEQLRLDVTTQTPLTPEQLRAVENTVQEAVGQDEAVYMEEVPLALTAQVPGLRSLDEVYPDPVRVVSVGVPVAHALDPASQAALQTSVELCCGTHLLRTGAVGDLVIIGDRQLSKGTTRLLAVTGEQAQQARELGQSLAQEVKAATERLSLGSRDVAEALRLSKDIGRLIEAVETAVMPQWQRRELLATVKMLQRRANTAIRKLQMGQAAKKTQELLERHSKGPLIVDTVSAESLSVLVKVVRQLCEQAPSTSVLLLSPQPMGKVLCACQVAQGAMPTFTAEAWALAVCSHMGGKAWGSRVVAQGTGSTTDLEAALSIAQTYALSQL
B5: BaiA2 (Clostridium scindens, UniProt P19337); chain MNLVQDKVTIITGGTRGIGFAAAKIFIDNGAKVSIFGETQEEVDTALAQLKELYPEEEVLGFAPDLTSRDAVMAAVGQVAQKYGRLDVMINNAGITSNNVFSRVSEEEFKHIMDINVTGVFNGAWCAYQCMKDAKKGVIINTASVTGIFGSLSGVGYPASKASVIGLTHGLGREIIRKNIRVVGVAPGVVNTDMTNGNPPEIMEGYLKALPMKRMLEPEEIANVYLFLASDLASGITATTVSVDGAYRP
B6: MMP2 (Homo sapiens, UniProt P08253); chain YNFFPRKPKWDKNQITYRIIGYTPDLDPETVDDAFARAFQVWSDVTPLRFSRIHDGEADIMINFGRWEHGDGYPFDGKDGLLAHAFAPGTGVGGDSHFDDDELWTLGEGQVVRVKYGNADGEYCKFPFLFNGKEYNSCTDTGRSDGFLWCSTTYNFEKDGKYGFCPHEALFTMGGNAEGQPCKFPFRFQGTSYDSCTTEGRTDGYRWCGTTEDYDRDKKYGFCPETAMSTVGGNSEGAPCVFPFTFLGNKYESCTSAGRSDGKMWCATTANYDDDRKWGFCPDQGYSLFLVAAHEFGHAMGLEHSQDPGALMAPIYTYTKNFRLSQDDIKGIQELYGASPDIDLGTGPTPTLGPVTPEICKQDIVFDGIAQIRGEIFFFKDRFIWRTVTPRDKPMGPLLVATFWPELPEKIDAVYEAPQEEKAVFFAGNEYWIYSASTLERGYPKPLTSLGLPPDVQRVDAAFNWSKNKKTYIFAGDKFWRYNEVKKKMDPGFPKLIADAWNAIPDNLDAVVDLQGGGHSYFFKGAYYLKLENQSLKSVKFGSIKSDWLGC
B7: mtnK (Escherichia coli, UniProt B7MMH5); chain MTDSIPSGYKPLTCDTLPGYLSSRLTPSCEPGGLPEEWKVSEVGDGNLNMVFIVEGTHKTIIVKQALPWLRAGGEGWPLSLSRAGFEYNVLCQEAKYAGHTLIPQVYFYDPEMALFAMEYLTPHVILRKELINGKKFPKLAEDIGRFLAQTLFNTSDIGMSAEQKKALTAEFALNHELCKITEDLIFTEPYYNAERNNWTSPELDDAVHKAWADVEMIQVAMRYKYKFMTEAQALLHGDLHSGSIMVTDTDTKVIDPEFGFMGPMAFDIGNYIGNLLLAYFSRPGWDANEQRRADYQEWLLQQIVQTWSVFTREFRQLWDNKTQGDAWSTEMYQQNRAALEDAQDQFFATLLEDSLVNAGMEMNRRIIGFAGVAELKQIENTELRAGCERRALTMARDLIVNARQFKNMDSVIQSAKVK
B8: TenA_E (Arabidopsis thaliana, UniProt Q9ASY9); chain MEKRGVIDTWIDKHRSIYTAATRHAFVVSIRDGSVDLSSFRTWLGQDYLFVRRFVPFVASVLIRACKDSGESSDMEVVLGGIASLNDEIEWFKREGSKWDVDFSTVVPQRANQEYGRFLEDLMSSEVKYPVIMTAFWAIEAVYQESFAHCLEDGNKTPVELTGACHRWGNDGFKQYCSSVKNIAERCLENASGEVLGEAEDVLVRVLELEVAFWEMSRGGQ
B9: protein (Sinorhizobium meliloti, UniProt Q92LZ4); chain MSRPRILVPGKINPRVLERLPEMFETVRIERADAALVTADMRDVSGIAVSGKLPVPLMDAFPSLEIVANFGVGYDGVDVSRAAARGIVVTNTPDVLTEEVADTAIGLLLNTLRLLPQAEQWLRQGRWVREGAFPLSPLSLRGRTVGLFGLGRIGLAIARRLEAFGVSIAYHTRTPREGLGFTYHPTLVGMAEAVDTLIVIVPGTASTLKAVNADVLSALGPKGVLINVGRGSTVDEAALVTALQNGTIAGAGLDVFENEPNVPEALLSFPNVSLLPHVASASVVTRNAMSDLVVDNLKAWFSTGEALTPVAETPFRRRAIQN
B10: HARS1 Y330C (Homo sapiens, UniProt P12081); chain MAERAALEELVKLQGERVRGLKQQKASAELIEEEVAKLLKLKAQLGPDESKQKFVLKTPKGTRDYSPRQMAVREKVFDVIIRCFKRHGAEVIDTPVFELKETLMGKYGEDSKLIYDLKDQGGELLSLRYDLTVPFARYLAMNKLTNIKRYHIAKVYRRDNPAMTRGRYREFYQCDFDIAGNFDPMIPDAECLKIMCEILSSLQIGDFLVKVNDRRILDGMFAICGVSDSKFRTICSSVDKLDKVSWEEVKNEMVGEKGLAPEVADRIGDYVQQHGGVSLVEQLLQDPKLSQNKQALEGLGDLKLLFEYLTLFGIDDKISFDLSLARGLDCYTGVIYEAVLLQTPAQAGEEPLGVGSVAAGGRYDGLVGMFDPKGRKVPCVGLSIGVERIFSIVEQRLEALEEKIRTTETQVLVASAQKKLLEERLKLVSELWDAGIKAELLYKKNPKLLNQLQYCEEAGIPLVAIIGEQELKDGVIKLRSVTSREEVDVRREDLVEEIKRRTGQPLCIC
B11: protein (Streptomyces coelicolor, UniProt Q9K464); chain MAAYLCAPAVIHGEHSVETREIVEEVRGRHPHAPWAPRIDGIAASTGIESRGWMLPLEAAVAPGGGGDLGAAREALVRDGFTEQDANRAIAALKAVPASQTVQERTAPAWEAVQAYGERAARGALQIAGLDVADVDCLITSNSTTPALPGLDVALANRLPLRGDTMLLPATQWACVAGTRSLALAADLVAADPDRVVLVVISEALSTTYQPADDTLESLIVRLLFADTAVAAVVTGRPRPESVLRLDAAWHHTLPGTRDLHRLETRADGTHFVMDRRGPRAVQETVTAMWEWLRVRYEDDPSSWHPDVLLAHPGGTRVLEYMEQTMPDEWPSGLLSYSRDSYTSGNRGGAAVFDILRRAHDAGQKTGSRAVLYAAAPGLTATALEGEWL
Chain of UniProt Q04049 (whole entry, looked up): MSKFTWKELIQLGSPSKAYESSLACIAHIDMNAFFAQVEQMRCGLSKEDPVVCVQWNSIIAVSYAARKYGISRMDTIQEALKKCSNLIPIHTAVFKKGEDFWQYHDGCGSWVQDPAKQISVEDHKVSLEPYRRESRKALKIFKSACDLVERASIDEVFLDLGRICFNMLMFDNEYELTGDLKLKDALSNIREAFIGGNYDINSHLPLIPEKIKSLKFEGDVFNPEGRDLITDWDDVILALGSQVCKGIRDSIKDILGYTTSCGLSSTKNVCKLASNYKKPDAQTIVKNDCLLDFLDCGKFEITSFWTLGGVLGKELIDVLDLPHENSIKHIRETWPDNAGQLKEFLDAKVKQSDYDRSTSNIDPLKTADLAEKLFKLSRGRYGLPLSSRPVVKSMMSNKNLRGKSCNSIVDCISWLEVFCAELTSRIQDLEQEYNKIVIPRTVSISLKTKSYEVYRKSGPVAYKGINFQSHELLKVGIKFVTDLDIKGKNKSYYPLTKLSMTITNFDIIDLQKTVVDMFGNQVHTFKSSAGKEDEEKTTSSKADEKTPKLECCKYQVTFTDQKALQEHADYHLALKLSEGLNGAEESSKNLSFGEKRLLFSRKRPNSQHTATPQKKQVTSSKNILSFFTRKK
Chain of UniProt Q6PHW0 (whole entry, looked up): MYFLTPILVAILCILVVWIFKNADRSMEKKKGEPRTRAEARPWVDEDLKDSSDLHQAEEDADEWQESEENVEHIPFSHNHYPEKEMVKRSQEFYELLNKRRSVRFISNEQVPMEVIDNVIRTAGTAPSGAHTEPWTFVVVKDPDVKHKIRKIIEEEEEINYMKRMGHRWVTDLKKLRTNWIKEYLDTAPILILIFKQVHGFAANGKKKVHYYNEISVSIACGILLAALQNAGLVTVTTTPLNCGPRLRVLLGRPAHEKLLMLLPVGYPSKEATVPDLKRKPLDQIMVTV

Substance	substrate	setting	kcat/Km [M⁻¹ s⁻¹]
PGDH1 (Oryza sativa, UniProt B7F6I8)	O=C(O)[C@H](O)COP(=O)(O)O	pH 9, 25 °C, NaCl 0.1 M, apparent, together with: NAD+	94000 ± 8000
B1 (LYPLA2)	CN(C)c1ccc(/N=N/c2ccc(C(=O)NCCCn3cc(CCCCCCCCCCCCCCCC(=O)SC[C@H](NC(=O)c4cc5ccc(O)cc5oc4=O)C(=O)N4CCOCC4)nn3)cc2)cc1	pH 7.4, 37 °C	2300
B2 (protein)	O=[N+]([O-])c1ccc(O[C@@H]2OC[C@H](O)[C@@H](O)[C@@H]2O)cc1	pH 5.5, 35 °C, substrate inhibition	509 ± 44
B3 (protein G96D/P94L)	O[C@H]1CCCc2ccccc21	pH 7.4, phosphate 400 mM, NADPH 250 µM printed, together with: NADP+, reverse reaction	20 ± 4
B4 (AARS2)	C[C@H](N)C(=O)O	pH 8, 37 °C, KCl 20 mM, together with: ATP 4 mM	820
B5 (BaiA2)	C[C@H](CCC(=O)SCCNC(=O)CCNC(=O)[C@H](O)C(C)(C)COP(=O)(O)OP(=O)(O)OC[C@H]1O[C@@H](n2cnc3c(N)ncnc32)[C@H](O)[C@@H]1OP(=O)(O)O)[C@H]1CC[C@H]2[C@@H]3[C@H](O)C[C@@H]4C[C@H](O)CC[C@]4(C)[C@H]3C[C@H](O)[C@]12C	pH 8.7, 37 °C, together with: NAD+	5220
IYD (Homo sapiens, UniProt Q6PHW0)	N[C@@H](Cc1cc(F)c(O)c(I)c1)C(=O)O	pH 7.4, 25 °C, together with: sodium dithionite 0.5%	1700 ± 400
alanine aminopeptidase (Neisseria meningitidis, UniProt Q9JYV4)	CC[C@H](N)C(=O)Nc1ccc2c(CC(N)=O)cc(=O)oc2c1	pH 7.5, 37 °C	85000 ± 7000
B6 (MMP2)	CC(=O)N[C@@H](CCC(N)=O)C(=O)N1CCC[C@H]1C(=O)N[C@@H](CCC(N)=O)C(=O)NCC(=O)N[C@@H](CC(C)C)C(=O)N[C@@H](C)C(=O)N[C@@H](CCCCN)C(N)=O		18000
B7 (mtnK)	Nc1ncnc2c1ncn2[C@@H]1O[C@H](COP(=O)(O)OP(=O)(O)OP(=O)(O)O)[C@@H](O)[C@H]1O	pH 7.8, 30 °C, together with: 5-deoxyribose	170000
B8 (TenA_E)	Cc1ncc(CN)c(N)n1	pH 7.5, 30 °C, amino-HMP aminohydrolase activity, together with: 450 mM glycine betaine	0.08
RAD30 (Saccharomyces cerevisiae, UniProt Q04049)	Cc1cn([C@H]2C[C@H](O)[C@@H](COP(=O)(O)OP(=O)(O)OP(=O)(O)O)O2)c(=O)[nH]c1=O	pH 7.5, room temperature, apparent Km, apparent, together with: dG 10 nM primer-template	80
B9 (protein)	O=CC(=O)O	pH 7.5, 25 °C, NaCl 150 mM, together with: NADPH 0.4 mM	815 ± 56
B10 (HARS1 Y330C)	Nc1ncnc2c1ncn2[C@@H]1O[C@H](COP(=O)(O)OP(=O)(O)OP(=O)(O)O)[C@@H](O)[C@H]1O	pH 7.5, saturation not reached, together with: histidine, tRNAHis 5 µM, MgCl2 10 mM, KCl 150 mM	272
α-amino ester hydrolase (Xanthomonas campestris, UniProt Q8P8K4)	COC(=O)[C@H](N)c1ccccc1	pH 7, 25 °C, phosphate 100 mM	265000
B11 (protein)	CC(=O)CC(=O)SCCNC(=O)CCNC(=O)[C@H](O)C(C)(C)COP(=O)(O)OP(=O)(O)OC[C@H]1O[C@@H](n2cnc3c(N)ncnc32)[C@H](O)[C@@H]1OP(=O)(O)O	pH 7.8, 30 °C, NaCl 150 mM, together with: methylmalonyl-CoA 1.0 mM	645

For quick reference, copied from above:
Substance	substrate	setting	kcat/Km [M⁻¹ s⁻¹]
alanine aminopeptidase (Neisseria meningitidis, UniProt Q9JYV4)	CC[C@H](N)C(=O)Nc1ccc2c(CC(N)=O)cc(=O)oc2c1	pH 7.5, 37 °C	85000 ± 7000
